Measurements from different studies.
Each numbered part is a random draw from the data of one study; scales do not carry over between parts.

Block 1
Target: Sal-like protein 4, full length isoform A (SALL4, Homo sapiens, UniProt Q9UJQ4, residues 1-1053)
Chain of UniProt Q9UJQ4 (whole entry, looked up): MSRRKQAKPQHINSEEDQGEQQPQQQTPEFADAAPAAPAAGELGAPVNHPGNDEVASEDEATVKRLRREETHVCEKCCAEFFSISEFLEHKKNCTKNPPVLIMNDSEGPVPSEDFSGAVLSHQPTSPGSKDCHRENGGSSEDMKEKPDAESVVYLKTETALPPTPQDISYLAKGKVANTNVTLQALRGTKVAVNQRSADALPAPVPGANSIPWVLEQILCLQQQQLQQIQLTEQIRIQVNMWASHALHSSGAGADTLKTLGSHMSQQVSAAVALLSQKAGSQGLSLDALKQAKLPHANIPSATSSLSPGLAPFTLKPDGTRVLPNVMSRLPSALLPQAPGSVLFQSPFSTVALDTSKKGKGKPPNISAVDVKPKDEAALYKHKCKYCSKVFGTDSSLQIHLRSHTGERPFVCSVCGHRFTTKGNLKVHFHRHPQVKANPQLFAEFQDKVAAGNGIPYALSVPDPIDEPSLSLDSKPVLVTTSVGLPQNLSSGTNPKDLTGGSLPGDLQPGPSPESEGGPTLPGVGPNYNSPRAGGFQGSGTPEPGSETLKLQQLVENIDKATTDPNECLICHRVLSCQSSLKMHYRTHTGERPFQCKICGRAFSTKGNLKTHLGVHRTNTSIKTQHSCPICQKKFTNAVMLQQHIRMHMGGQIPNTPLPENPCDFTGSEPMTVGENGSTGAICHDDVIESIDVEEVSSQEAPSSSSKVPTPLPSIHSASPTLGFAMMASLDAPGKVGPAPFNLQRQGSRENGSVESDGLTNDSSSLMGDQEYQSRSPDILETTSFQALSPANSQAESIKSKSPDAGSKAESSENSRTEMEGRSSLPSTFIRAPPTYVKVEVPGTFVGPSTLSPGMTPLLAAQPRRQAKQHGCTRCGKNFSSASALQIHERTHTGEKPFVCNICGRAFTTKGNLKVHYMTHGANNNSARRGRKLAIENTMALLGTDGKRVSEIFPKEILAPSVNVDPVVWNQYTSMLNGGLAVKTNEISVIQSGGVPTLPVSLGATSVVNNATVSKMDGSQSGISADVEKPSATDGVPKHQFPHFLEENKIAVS
Technique: universal PBM
Form: double-stranded DNA, one strand shown
Medium: in vitro
Concentration: 600 nM
Notes: 8-mer, flanks averaged, mean of replicates
Direction: higher = stronger binding
| Sequence | E-score |
| --- | --- |
| CGTCGTCC | -0.272 |
| TCAATCCA | 0.000395 |
| CCGCGTGC | -0.313 |
| GTCACATA | 0.198 |
| GCCGATGA | -0.249 |
| GCGCCCGC | -0.313 |
| TATTTTCA | 0.29 |
| AAACTCGA | -0.0187 |
| CTCGGTAA | -0.024 |
| GAAGTCAA | 0.055 |
| CTAAGAGA | -0.0123 |
| CCGCAAAC | -0.0828 |
| ACTTCGAA | 0.135 |
| GGCAGCAA | -0.168 |
| ACGGCTAT | -0.0109 |
| AAATGGGA | 0.0679 |
| AAGGTCTC | 0.00713 |
| TGTCCAAA | 0.143 |
| CCAAAACC | -0.000915 |
| AATGTGTA | 0.289 |
| ATCGGGGG | -0.17 |
| ACAAATGC | 0.216 |
| TTACGAAA | 0.203 |
| GAAGGCAC | -0.172 |
| TGGAGACA | -0.0126 |

Block 2
Target: PABPC1L2, full length, GST fusion (mouse, UniProt A0ABA7IW68)
Technique: RNAcompete
Form: RNA
Medium: in vitro
Concentration: 20 nM
Notes: 7-mer, probes averaged, single round
Reference: mean of 7-mers
Direction: higher = stronger binding
Residues (chain): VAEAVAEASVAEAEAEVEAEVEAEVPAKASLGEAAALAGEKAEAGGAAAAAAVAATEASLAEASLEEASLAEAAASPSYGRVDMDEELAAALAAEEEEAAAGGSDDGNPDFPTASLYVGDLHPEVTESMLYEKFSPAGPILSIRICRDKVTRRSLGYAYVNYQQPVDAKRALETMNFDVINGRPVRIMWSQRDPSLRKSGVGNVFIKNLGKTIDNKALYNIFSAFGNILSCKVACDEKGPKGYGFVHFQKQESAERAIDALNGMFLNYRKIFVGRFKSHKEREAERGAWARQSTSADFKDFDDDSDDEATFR
| Sequence | 7-mer Z-score |
| --- | --- |
| GACCUAC | -0.166 |
| UUCUACU | -0.376 |
| CAGGCUU | -0.117 |
| CCGGACG | -0.132 |
| AAAAGUG | 6.53 |
| AGCUGUC | -0.248 |
| AAUGAUA | 0.178 |
| UGACAAU | -0.0736 |
| AGGGCCG | 0.119 |
| UAACAUU | -0.188 |
| CCUAAUA | -0.3 |
| CGUCCAA | -0.168 |
| CCACUGA | -0.231 |
| CGGGGUC | -0.0337 |
| AGACGAA | 0.113 |
| GUUUAAC | -0.34 |

Block 3
Target: RING finger protein unkempt homolog, zinc fingers 1-6, SBP tag (UNK, Homo sapiens, UniProt Q9C0B0, residues 30-357)
Chain of UniProt Q9C0B0 (30-357, looked up): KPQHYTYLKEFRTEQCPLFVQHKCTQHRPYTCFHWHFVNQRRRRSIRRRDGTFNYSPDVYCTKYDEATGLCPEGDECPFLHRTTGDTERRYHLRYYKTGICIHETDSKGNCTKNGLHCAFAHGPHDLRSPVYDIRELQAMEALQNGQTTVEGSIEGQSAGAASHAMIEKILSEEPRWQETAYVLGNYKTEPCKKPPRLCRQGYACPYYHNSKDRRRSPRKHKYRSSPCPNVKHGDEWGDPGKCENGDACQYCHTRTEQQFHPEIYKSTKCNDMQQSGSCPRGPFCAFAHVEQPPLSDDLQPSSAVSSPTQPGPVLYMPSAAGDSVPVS
Technique: RNA Bind-n-Seq
Form: RNA
Medium: in vitro
Concentration: 100 nM
Notes: RNA with constant flanks, vertebrate orthologous sites, ends assumed
Reference: input RNA pool
Direction: higher = stronger binding
All sequences stand within: GGGAGUUCUACAGUCCGACGAUC … CAACAGAGGAUUGAGCAUCA
| Sequence | bound/input enrichment [ratio] |
| --- | --- |
| CUGGCCAAGUUUCUUGCUUUUCUUAUCUUUUUCUUCUUCUUUUUUUCUUUUUUACUUUAUUCCUGUCACACACUCACAACGUCUGUCUCCUUCUCAGAAGAAGGGCUAGAGUUUUAACUU | 3.62 |
| CACAUCUGGUGAUAUUUGGCCUGGCCUUUCUGCUUACGAUAAUAGUCCCAGAUCACCCCAUAGUCCUUCACCUAUUGCUACACCACCUAGUCAGAGUUCAUCAUGCUCUGAUGCCCCCAU | 0.924 |
| GAUGCAGUGUAUAAAUUUUCCAAGGCAGUGACUUCAGCUUUAUAUACAUUGUUAGUGUUACCAUAAUUUACAUUUAAACUUUUAGAUCGGAUUGUUUGCUGUUGCUGUGUGUGAAGACCA | 1.5 |
| GUGUUGGUACAGAGUGCUCUGUGCCAGUACUCAUCAUCCCUUCUUCAUACAAACUGACCCUAGUUAUAGGAAUUUAAUAUUUUUAAAGUUUUACAUUGCUGUAUAUUCAAAGAUUUGUUU | 0.674 |
| UCAGAUCUAAGCCAACAGCAGUUCUAAAAUGCUAUUUAUUUGUGUCUGUAAGUUUGUACAUAGUAAUAUCAACCUCAUAUUGUUGCAGGUGUUUUUUUUUUUUUUUCCCAUAAGUUUUGA | 2.76 |
| UGAAAAUAGCUUCUGCUCCAUUGAGAGUAAAAAUAGUCCCAUGAAUAGAAAACUCCUAAGUAACUAUUUUUUAAAUAAAAAACGUUAAAUUUUGUAAAUCACCUGCUGCCACAAUACAAC | 0.928 |
| ACUGAAAAUGACCUGCUCCGCUAAAAAGUGAAAAUAGUCCCCAAGUAUGAAACUCCUUAAUAACUAUUUUUGAAAUUAAAAAGUUUAAAUUUUGUACACUAUUGCCAGUACACAACUCUA | 1.47 |
| ACACUUACAUUGCGGCAUAUAGACGACAUGGAAGUAGACCAGCUCUGCUGAUCUGAAACUUAGAUUUUUUUAAUUAUGUACUGGGGACAGGUUUUUGUCGCUUUACAUUGCUUCCUAGUU | 5.56 |
| GCUGGUGCUUGUCCUCUUCUGAGGAAGAGAUGAAUUGGGGAAACCUGUCUCCUUUUUAUAGUUUCUUUCUAAAUUAUGACCAAAAGAUAUUUUGCUAUUUCUUUCUUUAUAUAUGGACAU | 1.1 |
| CCCGGGAACUCCUCUGGGGACAGGUGGUGGGGCCCACUGGCCAUGUCAUCCAGGCUGUUUUAGCUUCAUUUUUUUAAAAAAAAUUAACAGUGCCCUUAUUAACCUGUAUGACUGAGAUUU | 0.488 |
| UUCUAGUGCUUACGAGGAUGGUUCAGAAAUUCUGUUUACUUGCAUAUGUAAGUGUGUACAUAGUAAAUCUCAGAUUGUUGCUGGAGUUUUUCUUUCUGAGGGACGAGUUUGAAUCUUGUU | 0.437 |

Block 4
Target: RNA binding protein fox-1 homolog 2, RRM domain, GST-SBP tag (RBFOX2, Homo sapiens, UniProt O43251-10, residues 100-194)
Technique: RNA Bind-n-Seq
Form: RNA
Medium: in vitro
Concentration: 365 nM
Notes: natural RNA segment, single round, ends assumed
Reference: no-protein control
Direction: higher = stronger binding
All sequences stand within: GGGAGUUCUACAGUCCGACGAUC … UGGAAUUCUCGGGUGCCAA
Target sequence (chain): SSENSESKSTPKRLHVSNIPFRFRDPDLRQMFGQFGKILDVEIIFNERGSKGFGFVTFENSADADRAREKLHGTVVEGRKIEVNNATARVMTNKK
| Sequence | RBNS enrichment (R) |
| --- | --- |
| AGAAGGAGUUGCUGACCAGUGCCCACCCCGGCAGCCCGGGAGGAACACAGGCAGCUCCUUUCCCUUCACGUGGUCUGCAGAGAGCAGGGUGAGCUGCCAGCUGCCCCUCU | 0.202 |
| GAGCCCUUCCAUACUCUGUGACUCUCAGUGUGAAUUGGAAUGCAAUUCUUUCCCUAAAAUGUGUGGAAAAGGCCACAUCAUGAGGACUGGUGUGAGUUGGGGUAGGGUCC | 1.23 |
| UUGAUUUGUUGGUUCAUGCCAAGUGUGUUCCACAGGUUGACUUUGAAUGUGGACCUCUGAGCAUCCACGCAGGAUGGCUCUCAGGUCCCAGUCACAGACGUCGCUUCCUG | 0.319 |
| AGCAAGUUCCAAGCGCACUUUUGCAUUUGCCGAGCAGACUUUUGCAGAGCCGGUGGCAGAAGCAGUGGCCUGGCCCGGCUCUGGAGCCCAGCUUGUCUGGGCCCUGCCCA | 3.13 |
| GCCCUGGCUAUAUAUUAUAUUGGGCCAUAGAGAUCAGCAAUGUAUCAAUUAAUAGAUUAAUCCAGAGACAGGAAGGAGGAAACGAAAGCUAGAGCCUCUUUGUGACUCCA | 0.36 |
| GCCCCAGCCCCAUCACCGAAACACAUACUCAAGAGCUCAAAUACCACUGCUCCCACCAGCGUACGGAUUAAGUUCAUCAGGCUUCCAUCGGCUGGAGCAUGGGACCAUAG | 0.455 |
| AUAUUUAUGGGGGGAGAACUUACAUUGUGAAACUUCUGUACAUUAAUUAUUAUUGCUGUUGUUAUUUUACAAGGGUCUAGGGAGAGACCCUUGUUUGAUUUUAGCUGCAG | 0.908 |
| UGUUCCUCACGUGUGGGACAGGACACAGAGCUGACUGAGCGUGGGACACUCCACAGCCUUCUCAUGACUUGUGAAGGAGGUUCACAGGAACGAGGGGUAUGUUUUAGAGC | 0.437 |
| UGUGCUUUUUAAUUUCUGCUUGAAUGUUUGUCCUGCUGUGUUGCAGCUUCUAAAGACAUUGUCACCGAGUGUGUGUGACUCAAAGAUCAAGAGUGAGGCUAAACUGCGAC | 0.612 |
| CAGGAAAAGUGGGUUGUCUUUGCCCCUCAAAGUCCACCUACCUAGAAACCAAGCCCACGGUCUUGGCCGUGACCCUGAUAAUAAAUGGGCUCUCUCAGAGGCGCCAGCCC | 0.347 |
| CGAUCACCAAGCAAGAAGCCAUUAGCAAGCUGCUGGGGGGGUCAGGGGUUCUGCUGGCUCAUACCCUCAGAAGAGCACCUGGGAGUAACCUAGUCAUGGCAAAGAAGAUG | 0.259 |
| UGCACUGUCUUUUGUAGCUCUGGACUGGAGGGGUAGAUGGGGAGUCAAUUACCCAUCACAUAAAUAUGAAACAUUUAUCAGAAAUGUUGCCAUUUUAAUGAGAUGAUUUU | 0.475 |

Repeated from above (block 2):
| Sequence | 7-mer Z-score |
| --- | --- |
| UAACAUU | -0.188 |
| CCUAAUA | -0.3 |
| CGUCCAA | -0.168 |
| CCACUGA | -0.231 |
| CGGGGUC | -0.0337 |
| AGACGAA | 0.113 |
| GUUUAAC | -0.34 |
